Results pooled from the literature.
Parts stem from different laboratories: compare values within a part only. Substitutions count along the parent as printed.
Chain of UniProt P41145 (whole entry, looked up): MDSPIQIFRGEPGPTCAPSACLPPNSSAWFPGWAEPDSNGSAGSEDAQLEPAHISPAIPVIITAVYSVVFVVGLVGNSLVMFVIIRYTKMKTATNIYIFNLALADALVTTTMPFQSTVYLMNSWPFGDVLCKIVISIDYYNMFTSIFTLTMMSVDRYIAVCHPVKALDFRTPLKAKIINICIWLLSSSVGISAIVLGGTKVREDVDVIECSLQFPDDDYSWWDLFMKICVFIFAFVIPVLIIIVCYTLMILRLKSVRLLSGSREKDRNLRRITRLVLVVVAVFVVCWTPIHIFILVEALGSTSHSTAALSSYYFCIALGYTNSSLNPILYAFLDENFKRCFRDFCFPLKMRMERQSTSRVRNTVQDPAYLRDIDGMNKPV

Sample 1
Target: CCNA1, cyclin fold, Cln2 fusion (human)
Method: yeast growth competition, sequencing
Medium: yeast
Notes: weak parent motif
Relative to: not given
Reading: higher = stronger binding
Parent: viral docking peptide; KGVKRKLFAEDSS
Variant | normalised enrichment score
KGVKWKLFAEDSS [R5W] | -0.105
KGVTRKLFAEDSS [K4T] | 0.148
KGVKRKLPAEDSS [F8P] | -0.00639
KGVKRKLFAEMSS [D11M] | 0.852
KGVKMKLFAEDSS [R5M] | 0.0786
KGVKRKLAAEDSS [F8A] | 0.482
KGVKRKWFAEDSS [L7W] | -0.43
KGVWRKLFAEDSS [K4W] | -0.249

Sample 2
Target: UDP-N-acetylglucosamine--peptide N-acetylglucosaminyltransferase 110 kDa subunit (OGT, Homo sapiens, UniProt O15294)
Chain of UniProt O15294 (whole entry, looked up): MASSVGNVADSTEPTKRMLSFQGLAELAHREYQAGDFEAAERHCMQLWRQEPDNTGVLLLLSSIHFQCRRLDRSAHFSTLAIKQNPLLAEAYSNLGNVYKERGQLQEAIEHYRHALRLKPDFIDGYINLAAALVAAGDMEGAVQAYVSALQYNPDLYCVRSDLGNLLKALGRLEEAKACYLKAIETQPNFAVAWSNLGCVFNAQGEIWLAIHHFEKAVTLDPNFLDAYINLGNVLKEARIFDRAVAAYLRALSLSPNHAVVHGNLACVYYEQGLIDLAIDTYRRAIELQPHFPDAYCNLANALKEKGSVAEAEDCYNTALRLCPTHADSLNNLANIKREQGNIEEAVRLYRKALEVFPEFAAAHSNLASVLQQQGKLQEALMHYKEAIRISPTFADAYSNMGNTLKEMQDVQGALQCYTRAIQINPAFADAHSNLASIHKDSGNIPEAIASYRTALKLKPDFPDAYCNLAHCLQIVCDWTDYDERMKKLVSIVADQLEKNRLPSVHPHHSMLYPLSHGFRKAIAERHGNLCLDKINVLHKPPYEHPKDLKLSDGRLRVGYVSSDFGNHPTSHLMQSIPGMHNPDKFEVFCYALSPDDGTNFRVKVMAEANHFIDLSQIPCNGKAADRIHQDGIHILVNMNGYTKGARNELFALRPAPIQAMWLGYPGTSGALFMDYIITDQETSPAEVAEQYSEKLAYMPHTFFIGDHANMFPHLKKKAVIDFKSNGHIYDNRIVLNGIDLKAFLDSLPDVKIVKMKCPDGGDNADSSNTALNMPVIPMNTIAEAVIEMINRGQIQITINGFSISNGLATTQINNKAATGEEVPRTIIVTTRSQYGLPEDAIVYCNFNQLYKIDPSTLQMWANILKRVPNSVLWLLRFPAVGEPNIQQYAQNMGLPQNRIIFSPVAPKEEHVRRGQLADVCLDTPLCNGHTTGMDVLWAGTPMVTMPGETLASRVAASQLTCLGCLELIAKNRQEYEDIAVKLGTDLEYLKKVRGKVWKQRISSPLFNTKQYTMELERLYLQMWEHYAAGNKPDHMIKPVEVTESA
Read-out: binding
Method: phage display NGS
Form: peptide
Notes: panning round 2
Relative to: input library
Sequence | minimum log2 enrichment ratio
RYLPIYQILTHTQPF | 3.54
QVFWPQYQINIPKLN | 3.83
LTPFHTHHGHVTRG | 2.06
RHLSHVHNVHSSNSV | 2.02
YETMDVFMPQYKIIA | 3.2
RDIMPDYHPIYQIRI | 4.54
ADFQLTYKPLYQIVA | 2.93
WPMDFPMFTHHHFH | 2.85

Other studies, line by line
Tested at: 10 µM
Structure (SMILES) | target or system | test | system | setting | scale | endpoint | value
CC(CCc1ccccc1)NC(C)C(O)c1ccc(O)cc1 (stereo not drawn) | Plasmodium berghei | inhibitor | Huh-7, GFP-expressing, liver stage | 24 h | relative to: untreated control | infection rate | 100%
CC(=O)C1=C(C)N(c2cccc(C(F)(F)F)c2)C(=O)N[C@H]1c1ccc(C#N)nc1 | OPRK1 (Homo sapiens, UniProt P41145) | ligand displacement |  |  |  | inhibition | -8.67%

A few entries again (sample 1):
Variant | normalised enrichment score
KGVKMKLFAEDSS [R5M] | 0.0786
KGVKRKWFAEDSS [L7W] | -0.43
